Published values from different studies.
Each numbered part is a random draw from the data of one study; scales do not carry over between parts. Changes are numbered by the printed parent chain.
Sequence of UniProt Q14012 (whole entry, looked up): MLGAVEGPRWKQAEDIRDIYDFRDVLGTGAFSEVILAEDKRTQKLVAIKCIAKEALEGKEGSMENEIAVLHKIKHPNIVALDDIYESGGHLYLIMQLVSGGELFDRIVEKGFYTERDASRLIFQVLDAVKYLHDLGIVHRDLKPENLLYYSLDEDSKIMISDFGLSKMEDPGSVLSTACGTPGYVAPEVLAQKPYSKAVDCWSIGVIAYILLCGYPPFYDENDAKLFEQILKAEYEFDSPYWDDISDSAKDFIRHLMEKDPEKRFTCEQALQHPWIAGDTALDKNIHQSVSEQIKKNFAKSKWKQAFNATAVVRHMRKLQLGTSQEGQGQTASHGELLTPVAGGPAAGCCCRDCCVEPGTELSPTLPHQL
Sequence of UniProt P27037 (whole entry, looked up): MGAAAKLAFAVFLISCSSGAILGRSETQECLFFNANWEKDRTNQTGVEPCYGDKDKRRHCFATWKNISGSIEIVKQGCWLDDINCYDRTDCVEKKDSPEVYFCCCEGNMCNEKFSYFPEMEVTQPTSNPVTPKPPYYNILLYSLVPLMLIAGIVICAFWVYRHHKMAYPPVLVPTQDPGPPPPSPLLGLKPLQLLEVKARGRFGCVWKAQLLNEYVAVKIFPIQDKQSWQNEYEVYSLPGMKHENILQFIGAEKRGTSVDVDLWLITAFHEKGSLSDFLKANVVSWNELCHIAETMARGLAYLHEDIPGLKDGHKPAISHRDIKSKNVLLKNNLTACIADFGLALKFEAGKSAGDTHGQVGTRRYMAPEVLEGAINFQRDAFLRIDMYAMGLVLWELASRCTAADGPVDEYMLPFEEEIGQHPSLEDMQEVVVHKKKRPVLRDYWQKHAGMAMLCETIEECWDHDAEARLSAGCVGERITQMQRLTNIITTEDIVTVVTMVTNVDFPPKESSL
Sequence of UniProt O94921 (whole entry, looked up): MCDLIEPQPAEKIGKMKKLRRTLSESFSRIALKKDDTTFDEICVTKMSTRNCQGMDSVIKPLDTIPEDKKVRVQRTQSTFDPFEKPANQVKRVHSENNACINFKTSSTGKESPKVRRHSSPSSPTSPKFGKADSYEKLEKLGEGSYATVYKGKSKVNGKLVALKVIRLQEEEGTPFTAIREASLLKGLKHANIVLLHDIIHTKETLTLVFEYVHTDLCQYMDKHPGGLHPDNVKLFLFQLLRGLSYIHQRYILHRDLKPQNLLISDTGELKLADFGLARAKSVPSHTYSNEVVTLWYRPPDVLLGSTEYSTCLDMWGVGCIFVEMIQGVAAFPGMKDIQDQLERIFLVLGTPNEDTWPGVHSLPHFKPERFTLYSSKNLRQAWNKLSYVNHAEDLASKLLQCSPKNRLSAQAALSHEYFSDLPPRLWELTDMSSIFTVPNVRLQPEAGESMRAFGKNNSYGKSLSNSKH
Sequence of UniProt P07948 (whole entry, looked up): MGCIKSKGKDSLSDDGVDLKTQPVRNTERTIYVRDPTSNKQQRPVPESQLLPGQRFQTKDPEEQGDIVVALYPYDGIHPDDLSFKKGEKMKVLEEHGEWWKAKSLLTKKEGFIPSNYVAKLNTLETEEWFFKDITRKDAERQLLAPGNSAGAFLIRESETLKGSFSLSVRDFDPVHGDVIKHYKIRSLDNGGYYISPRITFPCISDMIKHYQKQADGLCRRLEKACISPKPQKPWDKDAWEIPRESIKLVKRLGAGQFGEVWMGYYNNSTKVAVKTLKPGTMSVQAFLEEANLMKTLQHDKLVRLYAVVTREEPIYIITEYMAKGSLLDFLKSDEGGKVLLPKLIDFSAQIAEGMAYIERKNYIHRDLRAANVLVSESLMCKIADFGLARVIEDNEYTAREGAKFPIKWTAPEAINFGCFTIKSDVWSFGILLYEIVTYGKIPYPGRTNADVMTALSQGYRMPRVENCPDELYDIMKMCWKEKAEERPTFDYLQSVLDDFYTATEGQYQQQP
Sequence of UniProt P10721 (whole entry, unmodified, looked up): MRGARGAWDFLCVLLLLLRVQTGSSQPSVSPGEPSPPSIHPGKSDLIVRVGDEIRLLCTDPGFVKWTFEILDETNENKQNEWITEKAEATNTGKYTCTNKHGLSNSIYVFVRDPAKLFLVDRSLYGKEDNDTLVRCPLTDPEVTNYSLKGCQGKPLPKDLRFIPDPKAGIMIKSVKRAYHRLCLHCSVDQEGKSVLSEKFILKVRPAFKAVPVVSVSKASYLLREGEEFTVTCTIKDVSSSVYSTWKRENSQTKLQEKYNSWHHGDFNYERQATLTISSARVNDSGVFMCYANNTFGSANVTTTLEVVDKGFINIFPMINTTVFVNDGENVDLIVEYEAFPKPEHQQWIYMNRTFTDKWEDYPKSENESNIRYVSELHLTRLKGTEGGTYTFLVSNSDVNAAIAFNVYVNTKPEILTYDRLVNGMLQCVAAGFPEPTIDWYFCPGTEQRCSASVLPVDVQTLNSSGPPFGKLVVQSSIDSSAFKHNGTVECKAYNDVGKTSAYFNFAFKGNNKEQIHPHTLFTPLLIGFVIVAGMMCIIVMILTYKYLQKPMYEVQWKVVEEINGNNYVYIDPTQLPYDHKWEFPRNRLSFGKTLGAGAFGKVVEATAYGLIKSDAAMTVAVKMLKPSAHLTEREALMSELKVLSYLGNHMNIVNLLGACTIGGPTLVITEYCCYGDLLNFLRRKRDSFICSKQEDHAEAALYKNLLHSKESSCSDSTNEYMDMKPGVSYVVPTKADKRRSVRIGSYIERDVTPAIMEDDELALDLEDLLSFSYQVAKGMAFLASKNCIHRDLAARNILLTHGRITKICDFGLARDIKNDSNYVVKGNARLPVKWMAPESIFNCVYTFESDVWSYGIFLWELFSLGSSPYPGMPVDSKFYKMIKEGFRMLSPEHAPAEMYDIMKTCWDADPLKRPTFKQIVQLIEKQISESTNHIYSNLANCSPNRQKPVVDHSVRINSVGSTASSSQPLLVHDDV
Sequence of UniProt Q8N568 (whole entry, looked up): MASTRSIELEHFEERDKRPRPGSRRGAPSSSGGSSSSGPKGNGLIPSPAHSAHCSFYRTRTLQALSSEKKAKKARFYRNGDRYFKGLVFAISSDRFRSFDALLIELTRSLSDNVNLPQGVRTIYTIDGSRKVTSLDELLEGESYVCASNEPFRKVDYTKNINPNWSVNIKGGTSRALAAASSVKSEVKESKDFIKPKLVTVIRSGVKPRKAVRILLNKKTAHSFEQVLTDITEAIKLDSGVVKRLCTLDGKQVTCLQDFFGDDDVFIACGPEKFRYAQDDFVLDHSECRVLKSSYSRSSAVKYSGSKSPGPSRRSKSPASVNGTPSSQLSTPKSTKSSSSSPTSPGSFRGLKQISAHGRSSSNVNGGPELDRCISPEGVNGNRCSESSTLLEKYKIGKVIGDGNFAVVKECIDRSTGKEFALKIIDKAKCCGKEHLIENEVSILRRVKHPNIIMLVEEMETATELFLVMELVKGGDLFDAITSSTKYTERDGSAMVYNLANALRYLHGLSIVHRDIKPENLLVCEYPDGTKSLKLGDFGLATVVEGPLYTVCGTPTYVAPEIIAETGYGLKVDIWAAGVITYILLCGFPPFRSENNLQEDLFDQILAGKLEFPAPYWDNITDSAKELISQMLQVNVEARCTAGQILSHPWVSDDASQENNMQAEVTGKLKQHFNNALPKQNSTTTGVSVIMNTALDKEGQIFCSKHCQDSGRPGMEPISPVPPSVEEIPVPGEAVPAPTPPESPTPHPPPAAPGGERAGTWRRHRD
Sequence of UniProt Q13153 (whole entry, looked up): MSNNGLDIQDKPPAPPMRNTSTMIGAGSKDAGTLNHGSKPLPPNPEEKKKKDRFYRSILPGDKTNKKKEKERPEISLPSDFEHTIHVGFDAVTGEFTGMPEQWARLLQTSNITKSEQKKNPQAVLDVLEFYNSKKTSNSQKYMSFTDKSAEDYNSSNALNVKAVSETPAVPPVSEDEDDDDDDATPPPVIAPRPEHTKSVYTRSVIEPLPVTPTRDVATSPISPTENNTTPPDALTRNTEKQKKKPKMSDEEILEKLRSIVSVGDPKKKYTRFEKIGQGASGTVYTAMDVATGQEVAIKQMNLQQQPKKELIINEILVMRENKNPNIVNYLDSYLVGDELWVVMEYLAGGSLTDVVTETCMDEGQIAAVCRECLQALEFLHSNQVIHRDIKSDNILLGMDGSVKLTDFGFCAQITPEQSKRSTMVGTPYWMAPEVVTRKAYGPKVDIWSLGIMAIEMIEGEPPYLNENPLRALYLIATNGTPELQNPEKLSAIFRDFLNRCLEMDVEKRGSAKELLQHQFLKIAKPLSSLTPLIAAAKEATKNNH
Sequence of UniProt Q9Y616 (whole entry, looked up): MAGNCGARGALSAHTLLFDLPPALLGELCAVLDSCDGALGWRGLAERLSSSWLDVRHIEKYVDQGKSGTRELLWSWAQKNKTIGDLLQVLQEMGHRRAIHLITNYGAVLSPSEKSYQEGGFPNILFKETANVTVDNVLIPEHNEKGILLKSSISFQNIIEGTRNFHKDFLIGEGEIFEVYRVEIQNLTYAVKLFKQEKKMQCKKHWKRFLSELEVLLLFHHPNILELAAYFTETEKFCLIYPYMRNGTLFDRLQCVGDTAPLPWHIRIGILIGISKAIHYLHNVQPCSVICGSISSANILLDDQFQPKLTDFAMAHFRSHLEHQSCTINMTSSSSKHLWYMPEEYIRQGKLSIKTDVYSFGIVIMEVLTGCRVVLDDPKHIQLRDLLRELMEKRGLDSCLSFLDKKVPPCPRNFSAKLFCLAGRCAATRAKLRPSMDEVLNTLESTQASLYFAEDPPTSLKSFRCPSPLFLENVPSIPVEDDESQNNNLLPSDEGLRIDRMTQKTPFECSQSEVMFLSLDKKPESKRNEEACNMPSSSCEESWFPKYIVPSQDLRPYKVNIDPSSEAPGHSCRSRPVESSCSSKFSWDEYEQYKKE

Series 1
SMILES: O=C(O)c1cc(-c2ccc(C3CCNCC3)cc2)c2ccc(-c3ccc(C(F)(F)F)cc3)cc2c1
Observed: cell-free assay
Technique: competition with immobilised ligand
Tested at: 1 µM
Quantity: remaining binding
Ephrin type-B receptor 2 (EPHB2, Homo sapiens, UniProt P29323): 100%
Cyclin-dependent kinase 14 (CDK14, Homo sapiens, UniProt O94921): 100%
cAMP-dependent protein kinase catalytic subunit PRKX (PRKX, Homo sapiens, UniProt P51817): 100%
Epidermal growth factor receptor (EGFR, Homo sapiens, UniProt P00533, del747-752/P753S): 100%
Activin receptor type-2A (ACVR2A, Homo sapiens, UniProt P27037): 100%
Serine/threonine-protein kinase PAK 1 (PAK1, Homo sapiens, UniProt Q13153): 100%
Calcium/calmodulin-dependent protein kinase type 1 (CAMK1, Homo sapiens, UniProt Q14012): 100%
Mast/stem cell growth factor receptor Kit (KIT, Homo sapiens, UniProt P10721, D816H): 100%
Tyrosine-protein kinase Lyn (LYN, Homo sapiens, UniProt P07948): 100%
Epidermal growth factor receptor (EGFR, Homo sapiens, UniProt P00533, A750P/del747-749): 100%
Serine/threonine-protein kinase DCLK2 (DCLK2, Homo sapiens, UniProt Q8N568): 100%
Serine/threonine-protein kinase Sgk2 (SGK2, Homo sapiens, UniProt Q9HBY8): 100%
Interleukin-1 receptor-associated kinase 3 (IRAK3, Homo sapiens, UniProt Q9Y616): 100%

Series 2
Target: CCND1, cyclin fold, Cln2 fusion (human)
Technique: yeast growth competition, sequencing
Matrix: yeast
Notes: strong parent motif
Relative to: not given
Reading: higher = stronger binding
Quantity: normalised enrichment score
Starting sequence: PKN2 docking peptide (human); VSAVQKLDFSDTM; partner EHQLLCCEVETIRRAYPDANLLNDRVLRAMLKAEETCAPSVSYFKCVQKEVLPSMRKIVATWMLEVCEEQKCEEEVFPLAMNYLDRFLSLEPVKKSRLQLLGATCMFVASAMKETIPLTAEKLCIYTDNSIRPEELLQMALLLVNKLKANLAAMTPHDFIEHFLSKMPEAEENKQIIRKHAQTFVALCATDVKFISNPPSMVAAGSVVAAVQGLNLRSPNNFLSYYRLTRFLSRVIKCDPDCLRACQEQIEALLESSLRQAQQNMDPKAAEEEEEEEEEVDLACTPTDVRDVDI
VSAVQKLDWSDTM [F9W]: 0.113
VSQVQKLDFSDTM [A3Q]: 0.798
VSAVQKLVFSDTM [D8V]: 1.41
QSAVQKLDFSDTM [V1Q]: 2.03
VSAVQKLDFLDTM [S10L]: 1.12
VSAVQKLDFYDTM [S10Y]: 1.01
VSAVQLLDFSDTM [K6L]: 1
VSAVQKLDFSDLM [T12L]: 2.63

Series 3
Partner: ARF18 482-602 (Arabidopsis thaliana, UniProt Q9C5W9)
Technique: two-hybrid
Relative to: out of 4 tests
Reading: higher = firmer interaction
Quantity: positive tests
B1: IAA28 (Arabidopsis thaliana, UniProt Q9XFM0); chain MEEEKRLELRLAPPCHQFTSNNNINGSKQKSSTKETSFLSNNRVEVAPVVGWPPVRSSRRNLTAQLKEEMKKKESDEEKELYVKINMEGVPIGRKVNLSAYNNYQQLSHAVDQLFSKKDSWDLNRQYTLVYEDTEGDKVLVGDVPWEMFVSTVKRLHVLKTSHAFSLSPRKHGKE
B2: ARF11 500-622 (Arabidopsis thaliana, UniProt Q9ZPY6); chain SPKEQKQQTSTRSRIKVQMQGTAVGRAVDLTLLRSYDELIKELEKMFEIEGELSPKDKWAIVFTDDEGDRMLVGDDPWNEFCKMAKKLFIYPSDEVKKMRSKSLLGDKGTIVNLESDQRTVHV
B3: ARF1 538-665 (Arabidopsis thaliana, UniProt Q8L7G0); chain SRQIRSCTKVHMQGSAVGRAIDLTRSECYEDLFKKLEEMFDIKGELLESTKKWQVVYTDDEDDMMMVGDDPWNEFCGMVRKIFIYTPEEVKKLSPKNKLAVNARMQLKADAEENGNTEGRSSSMAGSR
B4: IAA17 (Arabidopsis thaliana, UniProt P93830); chain MMGSVELNLRETELCLGLPGGDTVAPVTGNKRGFSETVDLKLNLNNEPANKEGSTTHDVVTFDSKEKSACPKDPAKPPAKAQVVGWPPVRSYRKNVMVSCQKSSGGPEAAAFVKVSMDGAPYLRKIDLRMYKSYDELSNALSNMFSSFTMGKHGGEEGMIDFMNERKLMDLVNSWDYVPSYEDKDGDWMLVGDVPWPMFVDTCKRLRLMKGSDAIGLAPRAMEKCKSRA
B5: ARF8 699-811 (Arabidopsis thaliana, UniProt Q9FGV1); chain NSSNQTKNFVKVYKSGSVGRSLDISRFSSYHELREELGKMFAIEGLLEDPLRSGWQLVFVDKENDILLLGDDPWESFVNNVWYIKILSPEDVHQMGDHGEGSGGLFPQNPTHL
B6: ARF7 1030-1164 (Arabidopsis thaliana, UniProt P93022); chain PAQTQRMRTYTKVQKRGSVGRSIDVNRYRGYDELRHDLARMFGIEGQLEDPQTSDWKLVYVDHENDILLVGDDPWEEFVNCVQSIKILSSAEVQQMSLDGNFAGVPVTNQACSGGDSGNAWRGHYDDNSATSFNR
B7: ARF10 575-693 (Arabidopsis thaliana, UniProt Q9SKN5); chain LQGLETGHCKVFMESEDVGRTLDLSVIGSYQELYRKLAEMFHIEERSDLLTHVVYRDANGVIKRIGDEPFSDFMKATKRLTIKMDIGGDNVRKTWITGIRTGENGIDASTKTGPLSIFA
B8: ARF6 790-935 (Arabidopsis thaliana, UniProt Q9ZTX8); chain SENPQSNTFVKVYKSGSFGRSLDISKFSSYHELRSELARMFGLEGQLEDPVRSGWQLVFVDRENDVLLLGDDPWPEFVSSVWCIKILSPQEVQQMGKRGLELLNSAPSSNNVDKLPSNGNCDDFGNRSDPRNLGNGIASVGGSFNY
Residues (chain): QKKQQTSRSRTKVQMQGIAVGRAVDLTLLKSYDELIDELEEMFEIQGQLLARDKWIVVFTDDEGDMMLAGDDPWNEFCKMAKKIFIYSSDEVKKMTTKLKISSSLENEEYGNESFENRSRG
B1 (IAA28): 1
B2 (ARF11 500-622): 1
B3 (ARF1 538-665): 0
B4 (IAA17): 0
B5 (ARF8 699-811): 0
B6 (ARF7 1030-1164): 0
B7 (ARF10 575-693): 0
B8 (ARF6 790-935): 2

Series 4
Target: Histone acetyltransferase KAT6A, winged helix 2, GST fusion (KAT6A, Homo sapiens, UniProt Q92794, residues 85-181)
Technique: protein binding microarray
Form: double-stranded DNA, one strand shown
Matrix: in vitro
Tested at: not given
Notes: 8-mer, flanks averaged, mean of 2 arrays, mostly near background
Relative to: not given
Reading: higher = stronger binding
Quantity: E-score
Residues (chain): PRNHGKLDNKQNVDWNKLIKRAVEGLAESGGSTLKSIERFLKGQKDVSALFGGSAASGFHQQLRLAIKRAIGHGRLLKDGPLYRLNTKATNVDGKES
CTGGGTCC: -0.0256
ATCGTTTA: 0.0122
CGAGGCGA: 0.176
AACCTTGA: 0.0977
ACTAATCA: 0.0548
CGTTCATC: 0.134
TAGCAAGA: -0.00067
ACCAATAC: -0.133

For quick reference, copied from above (series 3):
B3 (ARF1 538-665): 0
B8 (ARF6 790-935): 2
B5 (ARF8 699-811): 0
B2 (ARF11 500-622): 1
